Measurements of several laboratories.
Protocols differ between the studies behind these lines. Numbers after ± are the reported error.

SMILES | assay | system | setting | AUC
Cc1cc(Nc2cc3ncccc3c(N[C@@H]3C[C@H]4CC[C@@H](C3)N4CCC#N)n2)n[nH]1 | – | male BALB/c mouse, plasma | oral, 10 mg/kg, 0 to 24 h | 0.006 ± 0.002 µM·h
OC[C@H]1O[C@@H](c2ccc(Cl)c(Cc3ccc(O[C@H]4CCOC4)cc3)c2)[C@H](O)[C@@H](O)[C@@H]1O | – | male ICR mouse, liver | oral, 3 mg/kg, 24 h | 2930 ng·h/mL
O=C(N[C@@H](Cn1ccnc1)c1ccc(Cl)cc1Cl)c1ccc(-c2nnc(-c3ccccc3)o2)cc1 | – | mouse, plasma | oral, 25 mg/kg, HPCD formulation | 55 ng·h/mL
COc1ccc2c(c1)c(CC(=O)O)c(C)n2C(=O)c1ccc(Cl)cc1 | – | male ICR mouse, kidney | oral, 3 mg/kg, 24 h | 37400 ng·h/mL
COc1cccc2c1C(=O)c1c(O)c3c(c(O)c1C2=O)C[C@@](O)(C(=O)CO)C[C@@H]3O[C@H]1C[C@H](N)[C@H](O)[C@H](C)O1 | – | mouse, E0771 tumour-bearing, liver | intravenous, 92 µmol/kg | 2180 µM·h
CN(C)CCCC1(c2ccc(F)cc2)OCc2cc(C#N)ccc21 (racemic) | – | CD-1 mouse, pregnant female, gestation day 18, maternal serum | intraperitoneal, 20 mg/kg | 2240 ± 79 ng·h/mL
CC[C@H](C)[C@@H]1NC(=O)[C@H](Cc2ccc(O)cc2)NC(=O)[C@@H](N)CSSC[C@@H](C(=O)N2CCC[C@H]2C(=O)N[C@@H](CC(C)C)C(=O)NCC(N)=O)NC(=O)[C@H](CC(N)=O)NC(=O)[C@H](CCC(N)=O)NC1=O | microdialysis, RIA | male C57BL/6J mouse, amygdala ECF | i.p., 12 µg | 61.5 ± 36.9 pg·30 min/sample
N#C[C@@H]1CCCN1C(=O)CNC12CC3CC(CC(O)(C3)C1)C2 | – | male ICR mouse, liver | oral, 3 mg/kg, 24 h | 22800 ng·h/mL
O=C(Nc1c(Cl)c[n+]([O-])cc1Cl)c1ccc(OC(F)F)c(OCC2CC2)c1 | – | db/db mouse | oral, 3 mg/kg/day, 28 days, steady state, geometric mean | 2630 ng·h/mL
CNCCCC1(c2ccc(F)cc2)OCc2cc(C#N)ccc21 (stereo not shown) | – | CD-1 mouse, pregnant female, gestation day 14, maternal serum | intraperitoneal, 20 mg/kg citalopram, single dose | 418 ± 52.5 ng·h/mL

A few entries again:
SMILES | assay | system | setting | AUC
CN(C)CCCC1(c2ccc(F)cc2)OCc2cc(C#N)ccc21 (racemic) | – | CD-1 mouse, pregnant female, gestation day 18, maternal serum | intraperitoneal, 20 mg/kg | 2240 ± 79 ng·h/mL
